Results collected from several papers.
Each numbered part is a random draw from the data of one study; scales do not carry over between parts. Changes are numbered by the printed parent chain.

Block 1 — technique: RNA Bind-n-Seq; molecule type: RNA; medium: in vitro; concentration: not given; relative to: input RNA pool; reading: higher = stronger binding; measurement: bound/input enrichment
Target: RING finger protein unkempt homolog, zinc fingers 1-6, GST-SBP tag (UNK, Homo sapiens, UniProt Q9C0B0, residues 30-357)
Notes: RNA with constant flanks, human-mouse chimeric sites, ends assumed
Shared flanks, not repeated: GGGAGUUCUACAGUCCGACGAUC … CAACAGAGGAUUGAGCAUCA
Construct (chain): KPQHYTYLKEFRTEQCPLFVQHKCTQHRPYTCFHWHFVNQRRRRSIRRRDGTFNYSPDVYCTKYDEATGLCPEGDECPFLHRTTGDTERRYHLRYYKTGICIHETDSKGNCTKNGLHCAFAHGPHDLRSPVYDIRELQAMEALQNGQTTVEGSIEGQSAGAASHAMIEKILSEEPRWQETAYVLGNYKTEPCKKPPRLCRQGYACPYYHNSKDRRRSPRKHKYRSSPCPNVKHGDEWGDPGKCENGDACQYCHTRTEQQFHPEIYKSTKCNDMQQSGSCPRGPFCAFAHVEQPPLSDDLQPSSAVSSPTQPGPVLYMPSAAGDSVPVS
Strand = ACCUCCCCCUCCCGCCUCACCCCACCCCCGCUUUUUGGAAAGUUUUUGGCGUUUCUUUUCCUUCCCCAGUUAGAAUUAUUACAGUUUAGAGUCUAUGGGUCUAUCGAAGGGCUUGACGGA; value = 91.4 ratio
Strand = GGGACUGAUUCAUCCCAAGGACAGGCAACCCCAUUUGAUGCCUGGACUGACGACAGUAUGGAAGGGCCUAGUCAAAAUGUUGAAGCUGAGUCAAUUCAGGAUGCCAUGAGUAUGGAAGAG; value = 0.382 ratio
Strand = GUACUGCAGCAGCAGGGAAAACUGCAGGAAGCUCUGAUGCAUUAUAAGGAGGCUAUUCGAAUCAGUCCUACCUUUGCUGAUGCUUAUUCUAAUAUGGGAAACACUCUAAAGGAGAUGCAG; value = 0.143 ratio
Strand = GGAAGUACAUUAAUGGAGAUUGAUGGUGACAAAGGCAAGCAGGGCGGUCCCACCUACUACAUAGACACCAAUGCCCUCCGCGUGCCCAGGGAGAACAUGGAGGCCAUCUCACCACUCAAG; value = 0.327 ratio
Strand = CUGAGGAUACCACUGAAGAGACCUUAAAAGAAUCAUUUUGACGGCUCGUUCGUGCAAGAAUAGUCACUGAUCGGGAAAACUGGGUCCCCAAAGGGUUUGGUUUUGUAGACUUUAAUAGUG; value = 0.747 ratio
Strand = GCGGCAGAAUCAUGGAGGACAUGAUGGAGCUCCCCAAAGCGCGCGUCAACGCCAGCAUGCUAGCUCAGUAUAUCGACCGGCCCGUGUGCUUCGUGGGGAAGCUGGAAAAGAUUCAUCCCA; value = 0.102 ratio
Strand = UUUCUAUUGCAGCAAACGAUGCUAAGAAUUAAGGAUCCUAAGAAGUCCCUGGAUUUUUAUACGAGGGUUCUUGGAAUGACCCUCCUGCAGAAGCUUGACUUCCCUGCUAUGAAGUUCUCG; value = 0.0972 ratio
Strand = CACGUGUCUGCAGUACUUGAUGUGGAUUACUCUCCCACUGGGAAGGAAUUUGUGUCUGCCAGCUUUGAUAAAUCUAUUAGAAUCUUUCCUGUGGACAAGAGCCGAAGCAGGGAAGUGUAU; value = 0.219 ratio
Strand = GAUAAGAAAAGCUUGUUGGAGACCCGCUUGCAUGUCACUGGUAGAGACCUGAGGUGUCAAAUAGCUGAAACUUUCGGAUUUCAAGAAAAUUAUAUCAAGAUCGUAAUAAAUAAGAAGCAG; value = 0.684 ratio
Strand = GAAACAUUUAAAUUUAAAGAAGCUGUUGUUCUAGGAAGUACGGACUUUCUAGAAGAUGAUAUAGAAAAAAUUGUAGAAGAACUGGGGAAAGAGUAUAAAGGCAAUGCCUACCAUCUGAUG; value = 2.2 ratio
Strand = ACAGUUAUAUUGUUGAGUUUCAUUUUCAUAUAUUCUUGUAGUGUCUGCUUGCCUGUGACUUCUGGUAAAAUAAGACUAGCCUUUGAAAAUAUUUUAGAUUUAACAUUAACAUUUUCUAAA; value = 20.6 ratio

Block 2 — technique: DHFR PCA, deep sequencing; medium: yeast; together with: (+)-ABA 0.032 µM; relative to: wild-type fitted maximum; reading: higher = stronger binding; measurement: relative binding score
Target: ABI1, truncated, D143A, DHFR fusion (Arabidopsis thaliana)
Notes: methotrexate growth selection, single substitutions
Starting sequence: PYL1, truncated, DHFR fusion (Arabidopsis thaliana); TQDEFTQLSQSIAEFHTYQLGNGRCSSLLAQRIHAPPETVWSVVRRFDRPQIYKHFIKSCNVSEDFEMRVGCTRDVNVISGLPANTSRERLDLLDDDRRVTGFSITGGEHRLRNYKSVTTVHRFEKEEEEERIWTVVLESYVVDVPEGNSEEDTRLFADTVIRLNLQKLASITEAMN
Change = E125S; value = 46.1%
Change = R111M; value = 18%
Change = R69H; value = 13.3%
Change = E64S; value = 32.4%
Change = D159N; value = 13.6%
Change = T154V; value = 37.7%
Change = V145A; value = -3.93%
Change = L94H; value = 9.03%
Change = A158H; value = 32.9%
Change = E64Y; value = 1.36%
Change = V100N; value = 0.141%
Change = V161I; value = 55.5%
Change = L28F; value = -2.91%
Change = H34F; value = 17.9%
Change = T6N; value = 37.6%
Change = T101A; value = 8.49%

Block 3 — technique: RNA Bind-n-Seq; molecule type: RNA; medium: in vitro; concentration: 365 nM; relative to: no-protein control; reading: higher = stronger binding; measurement: RBNS enrichment (R)
Target: RNA binding protein fox-1 homolog 2, RRM domain, GST-SBP tag (RBFOX2, Homo sapiens, UniProt O43251-10, residues 100-194)
Notes: natural RNA segment, single round, ends assumed
Shared flanks, not repeated: GGGAGUUCUACAGUCCGACGAUC … UGGAAUUCUCGGGUGCCAA
Construct (chain): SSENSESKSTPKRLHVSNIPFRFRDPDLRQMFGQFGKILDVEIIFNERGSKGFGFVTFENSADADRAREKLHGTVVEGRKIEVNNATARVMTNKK
Strand = UGUAGACUAGAGGAGAGGCUAGAGAGCAUGUGCUGCGGGGCCUAAUUAUAGGUCCUCACUCUUGACAGGGCUGAGCAAACAGAAACUGUCCACCAGUGAUCUCAAGCAUG; value = 3.09
Strand = UUGAUAGCACAACACAAAUUCCAUCCAAGAGGAGAAUCUUCCCCAGGGUUUAGUCCUGGGGCUGGCACUCGUUGUGACUUACACAGAGCAAAAUUGUGCUAAAGGCUUUU; value = 0.388
Strand = GGGCCGGGUUGUAUCAGGAGGAUUCAACCCCGCUAACAUGUGGGGUGCCCUCUGUAGGCCUUCACACAGGGAAGGAAGCCCUACCCUUUCAACUCCUGUUGGAGUGAGAG; value = 0.298
Strand = UUCUGGGAAGGGGUUUCUAACACUAGUCUGUGUGCUGUGGUUCCUGGGGUGCCCUCCACUGCCCUCUGUUCAGUAACAGGGCCUUGCUAAUCGGGUUGUCACUCAACAAA; value = 0.452
Strand = AAUAAAGCAUUCAAUACACUAUAGAUUCCAAAACAUAACAUUGCACCAAAUAGAAAUGUAUAUUUUAUUAUGCAAUGCCUUAGUCAUAAACUGGGCUCAAACAAUCCUCA; value = 0.479
Strand = CUACUCCCACACUUGCUUGUGAAACGUGUACCAGCUACCUAAGGAGGGCCAAGGCAGGAAGGGCCAGGGCCUCCUCUGUCCUUACCAACUCUGGGAAGUCAGCUCUGCCG; value = 0.758
Strand = CCUCUCUCCCUCUCCCCCUCAACAGAAGGAAGGCUAUCUGUUGUCAUUCUCUUCCUGGCCAGUAGGAGUGCUGCUGUGCAGGGUCACUGCCUGCCCUGCUCCCUCUCUGG; value = 0.74
Strand = UGCAGUGUCAUCUUGAUUGUAUAUUGAAAAUACUGUGUAAUGAUGAAAUCAUAUUAUAAAUAUUUCAACUAAUUUUACUCUGAAUUUGUUUAUUAAAAGCUUUUUGAACA; value = 1.02
Strand = AGAGAGUUACCUCAGGGGAUCCAGAGUUGCCGCAAGUCUGAUGGCGCCAUCAAACUUAUGGGCAGGGAUAACAGUGUGCCUGGUUAAUAUUAAUAUUCCCAUUUUAUUAA; value = 0.455
Strand = AUUUAAUAAGUCAUAUUUUUUCACAAAUAAGGAAAAAUCAUUUUAAUGAGAAUUUUAAGUAUUUGCAAUAAAUAUGUGUAUAUAGAUUGUAUGUAUUCAUAUAUUAUUUU; value = 7
Strand = AUAGCUGUUUUAGCCGAGGGACUCGAUACCGACGUCCCCAGAUAUAGCUAGGCUAAGUCAAGAUCAACAGUCCGGGGUUGGUGGUGUUGGAUGAAACAUUCAUUUUUACC; value = 0.256
Strand = CCAUAUGAUAUGUUGUACAUUUUAUGGAAAUGUAAUAGAAUCUCACACAUUAUUUUAUAGAAAUAGAGUACAGAAGCAUCACAAGUAUUAAAGUUGGUUUUAGCAAGGAU; value = 1.24

Block 4 — technique: RNA Bind-n-Seq; molecule type: RNA; medium: in vitro; concentration: 1 µM; notes: whole 134-nt RNA, ends assumed; together with: 150 mM KCl; relative to: input library; reading: higher = stronger binding; measurement: log2 enrichment
Target: Ras GTPase-activating protein-binding protein 1, C-terminal RGG region (G3BP1, Homo sapiens, UniProt Q13283)
Sequence of UniProt Q13283 (whole entry, looked up): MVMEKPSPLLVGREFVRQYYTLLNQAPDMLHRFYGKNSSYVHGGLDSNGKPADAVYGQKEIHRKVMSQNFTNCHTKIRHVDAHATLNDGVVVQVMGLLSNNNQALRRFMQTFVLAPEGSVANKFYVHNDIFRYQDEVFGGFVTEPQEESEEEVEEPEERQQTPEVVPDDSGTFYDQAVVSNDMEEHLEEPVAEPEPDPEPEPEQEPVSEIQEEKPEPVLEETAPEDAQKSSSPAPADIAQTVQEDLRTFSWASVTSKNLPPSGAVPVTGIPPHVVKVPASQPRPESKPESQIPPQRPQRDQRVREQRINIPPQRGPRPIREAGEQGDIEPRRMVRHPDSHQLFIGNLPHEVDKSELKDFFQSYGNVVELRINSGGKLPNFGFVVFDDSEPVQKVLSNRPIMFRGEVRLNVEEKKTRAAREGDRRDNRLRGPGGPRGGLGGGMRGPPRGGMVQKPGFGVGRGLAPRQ
Shared flanks, not repeated: GGGAGUUCUACAGUCCGACGAUC … UGGAAUUCUCGGGUGUCAAGG
Strand = UCCUGUGCUACACAUCGUAUGUACCGAAUCGGCCCCCCGGCCCCCCGGGGCCCCCCGGGGAAAGUAUUAUGUUACGCCGUUCGGAUCUGC; value = -1.27
Strand = AAGUCCUGUGCUACACAUCGUAUGUACCGAAUCGGAAAAAGGAAAAAGGGAAAAAGGAAAGUAUUAUGUUACGCCGUUCGGAUCUGCACU; value = -1.94
Strand = GUCCUGUGCUACACAUCGUAUGUACCGAAUCGGGGUUUUUGGGGUGGGGAAAAAGGGGAAAGUAUUAUGUUACGCCGUUCGGAUCUGCAC; value = 1.67
Strand = AAGUCCUGUGCUACACAUCGUAUGUACCGAAUCGGGGUGGGGAGGGGAAAAAGGGGAAAGUAUUAUGUUACGCCGUUCGGAUCUGCACUU; value = 1.87
Strand = CACAGACAACACGCACCCACACAGACACAGAGGGAAGGUGUUGGGAUGGGGACAGGGUGCACAGCAGGGCGGGGUAGGACCCCAGCCCCU; value = -0.653
Strand = CUCAAGUCCUGUGCUACACAUCGUAUGUACCGAAUCGGGGCCGGGGCCGGCCGGAAAGUAUUAUGUUACGCCGUUCGGAUCUGCACUUCC; value = -1.35
Strand = ACCAUGCAGGUGCGCAUCUUUGGGAAGUGGGGCAAGGGGGGGAUAGGGAGGGGGGUAACACUUUGGGAACAGGUGGUCCCAGGUCGUUUC; value = -1.49
Strand = GUCCUGUGCUACACAUCGUAUGUACCGAAUCGGGGUGGGGUUUGGGGAAAAAAAGGGGAAAGUAUUAUGUUACGCCGUUCGGAUCUGCAC; value = 0.857
Strand = UUAUUGAACUGACAAGGUCCUCCCUGUGUUGUAGCAAGGACCAGACUGGCUUGAGCUCUCUGAGAUGACCGAGCAGCCAGACUAUGACCU; value = 0.0655
Strand = UGGCCCUGGUGGCAUGCGGGGAGGAAGAGGUGGCCUCAUGGAUCGUGGUGGUCCCGGUGGAAUGUUCAGUGGUGGCCGUGGUGGAGACAG; value = 3.86

Some of these lines once more (block 1):
Strand = GCGGCAGAAUCAUGGAGGACAUGAUGGAGCUCCCCAAAGCGCGCGUCAACGCCAGCAUGCUAGCUCAGUAUAUCGACCGGCCCGUGUGCUUCGUGGGGAAGCUGGAAAAGAUUCAUCCCA; value = 0.102 ratio
Strand = CUGAGGAUACCACUGAAGAGACCUUAAAAGAAUCAUUUUGACGGCUCGUUCGUGCAAGAAUAGUCACUGAUCGGGAAAACUGGGUCCCCAAAGGGUUUGGUUUUGUAGACUUUAAUAGUG; value = 0.747 ratio
Strand = CACGUGUCUGCAGUACUUGAUGUGGAUUACUCUCCCACUGGGAAGGAAUUUGUGUCUGCCAGCUUUGAUAAAUCUAUUAGAAUCUUUCCUGUGGACAAGAGCCGAAGCAGGGAAGUGUAU; value = 0.219 ratio
Strand = GAUAAGAAAAGCUUGUUGGAGACCCGCUUGCAUGUCACUGGUAGAGACCUGAGGUGUCAAAUAGCUGAAACUUUCGGAUUUCAAGAAAAUUAUAUCAAGAUCGUAAUAAAUAAGAAGCAG; value = 0.684 ratio
Strand = GGGACUGAUUCAUCCCAAGGACAGGCAACCCCAUUUGAUGCCUGGACUGACGACAGUAUGGAAGGGCCUAGUCAAAAUGUUGAAGCUGAGUCAAUUCAGGAUGCCAUGAGUAUGGAAGAG; value = 0.382 ratio
Strand = UUUCUAUUGCAGCAAACGAUGCUAAGAAUUAAGGAUCCUAAGAAGUCCCUGGAUUUUUAUACGAGGGUUCUUGGAAUGACCCUCCUGCAGAAGCUUGACUUCCCUGCUAUGAAGUUCUCG; value = 0.0972 ratio
Strand = ACCUCCCCCUCCCGCCUCACCCCACCCCCGCUUUUUGGAAAGUUUUUGGCGUUUCUUUUCCUUCCCCAGUUAGAAUUAUUACAGUUUAGAGUCUAUGGGUCUAUCGAAGGGCUUGACGGA; value = 91.4 ratio
